{"data": "Experimental data pooled from the literature", "note": "Lines come from different studies, so protocols differ. Numbers after ± are the reported error."}
{"SMILES": "N=C(N)NCCCCC(=O)N[C@@H](CCC(N)=O)C(=O)N[C@@H](Cc1ccccc1)C(=O)N[C@@H](CCCNC(=N)N)C(=O)c1nc2ccccc2s1", "cell line": "Vero E6", "assay": "CellTiter-Glo", "conditions": "10 µM, 24 h", "scale": "baseline: DMSO", "measurement": "cytotoxicity", "result": "not toxic"}
{"SMILES": "O=C(C=Cc1cc(C(=O)c2ccc(OC3CCCC3)cc2O)ccc1OCc1ccc2c(O)noc2c1)NCCOCCOCCOCCOCCOCCOCCOCCNc1cccc2c1C(=O)N(C1CCC(=O)NC1=O)C2=O (centres unmarked)", "cell line": "TIGK gingival epithelial cells", "assay": "cell proliferation, CCK-8", "conditions": "48 h", "measurement": "TD50", "result": "970 µM"}
{"SMILES": "Fc1ccc(COc2ccccc2CNCc2ccccc2)cc1", "cell line": "J774.A1", "measurement": "cytotoxic concentration", "result": "> 12.5 µM"}
{"SMILES": "O=C(c1cc(Cc2n[nH]c(=O)c3ccccc23)ccc1F)N1CCN(C(=O)C2CC2)CC1", "cell line": "human PBMC", "assay": "LC-MS/MS", "conditions": "10 µM, 1 h, 37 °C, with: 10 µM carboplatin 24 h pretreatment", "scale": "baseline: water pretreatment", "measurement": "intracellular concentration increase", "result": "> 30%"}
{"SMILES": "Clc1ccc(COc2ccc(CNCc3ccccc3)cc2)cc1", "cell line": "J774.A1", "measurement": "cytotoxic concentration", "result": "> 50 µM"}
{"SMILES": "COc1ccc2[nH]c([S+]([O-])Cc3ncc(C)c(OC)c3C)nc2c1 (centres unmarked)", "cell line": "pooled human hepatocyte co-culture", "assay": "mRNA induction, measured: CYP2B6 mRNA", "conditions": "48 h", "scale": "baseline: vehicle", "measurement": "Emax", "result": "9.1 fold"}
{"SMILES": "CC1(CNc2nc(-c3cccs3)nc(Cl)c2-c2c(F)cc(N)cc2F)COC1", "cell line": "HEK293, HeLa, HepG2", "assay": "resazurin", "conditions": "48 h", "measurement": "CC50", "result": "> 20 µM"}
{"SMILES": "NCc1cc2c(cc1F)C(=O)N(C1CCC(=O)NC1=O)C2 (centres unmarked)", "cell line": "Hep3B", "assay": "CellTiter-Glo", "conditions": "concentration not given, 72 h", "measurement": "minimum viability", "result": "30.2 ± 7.95%"}
{"SMILES": "CCC[C@H](CC)Oc1ccc(C(=O)OC)cc1NC(=O)c1nnn(-c2cc(OC)c(OCCCCCCOCCOCC(=O)N[C@H](C(=O)N3C[C@H](O)C[C@H]3C(=O)NCc3ccc(-c4scnc4C)cc3)C(C)(C)C)cc2OC)c1C", "cell line": "SNU-C4 cells", "assay": "cell viability", "conditions": "10 µM, 72 h, with: paclitaxel", "measurement": "fold enhancement of cytotoxicity", "result": "3.3 fold"}
{"SMILES": "c1csc(CNc2cc[nH]n2)c1", "cell line": "human peripheral blood lymphocytes (female)", "conditions": "1850 µg/mL, 4 h, repeat, with: without S9", "measurement": "cells with numerical aberrations", "result": "1%"}
{"SMILES": "FC(F)(F)CN1CC(n2cc(Oc3ccn4nc(Cl)cc4n3)cn2)C1", "cell line": "Hep cells", "assay": "cytotoxicity", "measurement": "IC50", "result": "> 512 µM"}
{"SMILES": "Cc1cc(C)c(CNC(=O)c2cc(Cl)c3c(c2C)O[C@@](C)([C@H]2CC[C@H](N(C)C)CC2)O3)c(=O)[nH]1", "cell line": "Caco-2", "conditions": "100 µM", "measurement": "Papp A to B", "result": "0.889 ± 0.048 ×10⁻⁶ cm/s"}
{"SMILES": "Clc1ccc(COc2ccccc2CNCc2cccnc2)cc1", "cell line": "J774.A1", "measurement": "cytotoxic concentration", "result": "> 12.5 µM"}
{"SMILES": "CC(=O)OC[C@H]1O[C@@H]([Se]Cc2ccc3ccccc3n2)[C@H](OC(C)=O)[C@@H](OC(C)=O)[C@@H]1OC(C)=O", "cell line": "THP-1 macrophages (PMA-differentiated)", "assay": "WST-1", "conditions": "10 µM, 24 h", "measurement": "viability", "result": "126 ± 5.5%"}
{"SMILES": "COC[C@@H](CC(C)C)NC(=O)c1ccc(C)c(C)c1", "cell line": "primary human lymphocytes", "conditions": "322 µg/mL, 4 (unit not given), with S9", "measurement": "mean mitotic index", "result": 5.6}
{"SMILES": "Cc1c2c(nn1C)CSCc1cc(n(C)n1)CSc1cc(c3ccccc3c1)OCCCc1c(C(=O)O)n(C)c3c-2c(Cl)ccc13", "cell line": "LX-2", "assay": "CCK-8", "conditions": "24 h", "measurement": "lowest cytotoxic concentration", "result": "> 100 µM"}
{"SMILES": "Cc1cn([C@H]2C[C@H](N=[N+]=[N-])[C@@H](CO)O2)c(=O)[nH]c1=O", "cell line": "human PBMC", "assay": "cytotoxicity, XTT", "measurement": "TC50", "result": "> 0.5 µM"}
{"SMILES": "CCc1nc(N)nc(N)c1-c1ccc(Cl)cc1", "cell line": "uninfected human foreskin fibroblasts", "assay": "MTT", "conditions": "5 µM, 48 h", "measurement": "viability", "result": "101%"}
{"SMILES": "COc1cccc(-c2n[nH]c(SCc3ccccn3)n2)c1OC", "cell line": "CHO-WBL", "conditions": "200 µg/mL, 3 h, with: rat liver S9", "measurement": "micronucleated binucleated cells", "result": "2.1%"}
{"SMILES": "[N-]=[N+]=N[C@]1(CO)O[C@@H](n2ccc(N)nc2=O)[C@@H](F)[C@@H]1O", "cell line": "Vero E6", "assay": "cytotoxicity", "conditions": "48 (unit not given)", "measurement": "CC50", "result": "> 100 µM"}
{"SMILES": "C#CCS(=O)(=O)c1ccc(CCN(Cc2cc(Cl)ccc2OCCC)C(=O)c2csc3ccccc23)cc1", "cell line": "J774.A1", "assay": "MTT", "conditions": "10 µM, 4 h", "measurement": "reduction of viability", "result": "14%"}
{"SMILES": "CO[C@H]1/C=C/O[C@@]2(C)Oc3c(C)c(O)c4c(c3C2=O)C2=NC3(CCN(CC(C)C)CC3)NC2=C(NC(=O)/C(C)=C\\C=C\\[C@H](C)[C@H](O)[C@@H](C)[C@@H](O)[C@@H](C)[C@H](OC(C)=O)[C@@H]1C)C4=O", "cell line": "THP-1 derived macrophages", "conditions": "30 min", "measurement": "intracellular/extracellular ratio", "result": 3.6}
{"SMILES": "O=S1(=O)OC(c2ccc(O)cc2)(c2ccc(O)cc2)c2ccccc21", "cell line": "IPEC-J2 monolayer, 14 d culture", "system": "HBSS", "conditions": "20 mg/L, 120 min, leakage marker", "measurement": "Papp (apical to basolateral)", "result": "0.863 ×10⁻⁶ cm/s"}
{"SMILES": "CC[C@]1(C)C[C@@H](OC(=O)CSc2nnc(N)[nH]2)[C@]2(C)[C@H](C)CC[C@]3(CCC(=O)[C@H]32)[C@@H](C)[C@@H]1O", "cell line": "pooled human hepatocyte co-culture", "assay": "mRNA induction, measured: UGT1A1 mRNA", "conditions": "48 h", "measurement": "EC50", "result": "2.89 µM"}
{"SMILES": "CO[C@@H]1[C@H](OC(=O)/C=C/C=C/C=C/C=C/C(=O)O)CC[C@]2(CO2)[C@H]1[C@@]1(C)O[C@@H]1CC=C(C)C", "cell line": "pigeon embryo fibroblast (PEF)", "measurement": "CC50", "result": "280 µM"}
{"SMILES": "COc1ccc(NC(=S)N/N=C/c2cccc3cc4ccccc4nc23)cc1", "cell line": "HeLa", "assay": "annexin V/PI", "conditions": "IC50, 48 h", "measurement": "viable cells", "result": "64.4 ± 1.44%"}
{"SMILES": "Cc1cccc2cc(CNCC3(N4CCCC4)COC3)cnc12", "cell line": "HEK", "conditions": "30 µM, 48 h", "scale": "baseline: DMSO", "measurement": "viability", "result": "80.5%"}
{"SMILES": "C[S+](C)[O-]", "cell line": "WA09 hESC-derived forebrain rosette tissues", "assay": "neural induction", "conditions": "concentration not given", "measurement": "cytotoxic level", "result": "> 1 % v/v"}
{"SMILES": "CC1(C)CCC(c2ccc(Cl)cc2)=C(CN2CCN(c3ccc(C(=O)NS(=O)(=O)c4ccc(N[C@H](CCN5CCOCC5)CSc5ccccc5)c(S(=O)(=O)C(F)(F)F)c4)cc3)CC2)C1", "cell line": "Caco-2 C2BBe1 monolayers", "assay": "pulse-chase lymph lipoprotein secretion", "system": "medium", "conditions": "50 % of saturated solubility, 2 h, chylomicron peak interval, control", "measurement": "fraction of dose absorbed", "result": "1.34 ± 0.86%"}
{"SMILES": "O=C(O)c1cccc(Cc2ccc3ccn(Cn4ccc5ccc(Cc6cccc(C(=O)O)c6)cc54)c3c2)c1", "cell line": "HL2/3 and TZM-bl co-culture", "conditions": "6 h, 0% serum", "measurement": "CC50", "result": "80 µM"}
{"SMILES": "C#CCNS(=O)(=O)c1ccc(CCN(Cc2cc(Cl)ccc2OCCC)C(=O)c2ccc(B3OC(C)(C)C(C)(C)O3)cc2)cc1", "cell line": "J774.A1", "assay": "MTT", "conditions": "10 µM, 4 h", "measurement": "reduction of viability", "result": "12%"}
{"SMILES": "Fc1ccc2[nH]cc(CNCC3(N4CCC(F)C4)COC3)c2c1 (centres unmarked)", "cell line": "HEK", "conditions": "30 µM, 48 h, 10% FBS", "scale": "baseline: DMSO", "measurement": "viability", "result": "51.5%"}
{"SMILES": "Cc1ncc([N+](=O)[O-])n1CCOC(=O)c1ccccc1", "cell line": "pigeon embryo fibroblast (PEF)", "measurement": "CC50", "result": "225 µM"}
{"SMILES": "O=Cc1cc2c(cc1F)C(=O)N(C1CCC(=O)NC1=O)C2 (centres unmarked)", "cell line": "Hep3B", "assay": "CellTiter-Glo", "conditions": "concentration not given, 72 h", "measurement": "minimum viability", "result": "33.9 ± 3.92%"}
{"SMILES": "CO[C@H]1/C=C/O[C@@]2(C)Oc3c(C)c(O)c4c(O)c(c(/C=N/N5CCN(C)CC5)c(O)c4c3C2=O)NC(=O)/C(C)=C\\C=C\\[C@H](C)[C@H](O)[C@@H](C)[C@@H](O)[C@@H](C)[C@H](OC(C)=O)[C@@H]1C", "cell line": "pooled human hepatocyte co-culture", "assay": "mRNA induction, measured: CYP2B6 mRNA", "conditions": "48 h", "scale": "baseline: vehicle", "measurement": "Emax", "result": "10.2 fold"}
{"SMILES": "CC1(F)CN(C(=O)Cn2c(=O)c(C(=O)NCc3ccc(Cl)cc3)cc3nc(N4CCNC4=O)cnc32)C1", "cell line": "Vero cells", "assay": "cell viability, CCK-8", "conditions": "5 days", "measurement": "CC50", "result": "> 40 µM"}
{"SMILES": "CCCC(CCC)C(=O)O", "cell line": "WA09 hESC-derived forebrain rosette tissues", "assay": "rosette emergence", "conditions": "5 days", "measurement": "concentration for complete inhibition", "result": "≥ 500 µM"}
{"SMILES": "c1cc2c(cc1CNCC1(N3CCCC3)COC1)OCCO2", "cell line": "HEK", "conditions": "30 µM, 48 h, 10% FBS", "scale": "baseline: DMSO", "measurement": "viability", "result": "98.5%"}
